Measurements of several laboratories.
Every numbered part comes from another study and shows a few of its results, in no order.

Sample 1
Target: Interferon regulatory factor 3, full length, phosphomimetic (IRF3, Homo sapiens, UniProt Q14653, residues 1-427, S386D/S396D/S398D/S402D/T404D/S405D)
Sequence of UniProt Q14653 (whole entry, unmodified, looked up): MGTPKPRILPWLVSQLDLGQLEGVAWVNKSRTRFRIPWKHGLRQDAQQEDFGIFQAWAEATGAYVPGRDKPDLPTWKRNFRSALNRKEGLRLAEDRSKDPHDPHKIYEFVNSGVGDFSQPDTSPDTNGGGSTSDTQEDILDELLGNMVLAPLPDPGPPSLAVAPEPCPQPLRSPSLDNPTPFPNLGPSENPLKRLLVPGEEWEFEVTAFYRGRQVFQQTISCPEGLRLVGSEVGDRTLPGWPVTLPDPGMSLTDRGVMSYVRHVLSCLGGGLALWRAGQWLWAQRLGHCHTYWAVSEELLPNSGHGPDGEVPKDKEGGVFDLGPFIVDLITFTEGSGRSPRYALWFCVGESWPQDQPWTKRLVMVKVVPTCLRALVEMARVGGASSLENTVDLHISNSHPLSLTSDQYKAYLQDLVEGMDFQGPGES
Method: protein-binding microarray
Form: double-stranded DNA, one strand shown
Matrix: in vitro
Tested at: 2540 nM top
Setting: 60-bp whole probe
Together with: salmon DNA 0.4 mg/ml
Reference: random background probes
Direction: higher = stronger binding
Endpoint: fitted relative affinity
All sequences stand within: GCCTAGCAC … GTCTTGATTCGCTTGACGCTGCTG
Strand = GACGGACTGCTTATCCTAACGTGCTAG; result = 0.0422 z-score
Strand = CCGAGAAACAGTAACCCTCTGTGCTAG; result = -0.353 z-score
Strand = TCAATTTTCATTAACTGACTGTGCTAG; result = 0.965 z-score
Strand = TTAGGTCTCCTACTGCTTTGGTGCTAG; result = 0.68 z-score
Strand = AGATGAAAAGTGAAGCCTAGGTGCTAG; result = -0.1 z-score
Strand = TGTGGGTTTCGGTGTGGGAGGTGCTAG; result = 4.03 z-score
Strand = GACGGACTGCTTATCATGACGTGCTAG; result = -0.318 z-score
Strand = TTAGGATTGGGGACTGGGTTAGTGCTA; result = -0.967 z-score
Strand = GACGGTCTCGGCATCGGGACGTGCTAG; result = -0.293 z-score
Strand = TCAATTCTCAACCCTGGTACTGTGCTA; result = 0.73 z-score
Strand = GCAGGGCTCTCTTCTGCTTCCGTGCTA; result = -0.638 z-score
Strand = TCCCATTCTGAATTCGAATGGTGCTAG; result = 2.74 z-score
Strand = GTAGGTTCCGGTTTCGGTTAGTGCTAG; result = 8.16 z-score
Strand = GACGGTATCGGGTAACGGGACGTGCTA; result = 1.28 z-score
Strand = GACGACATCAGTCTCGAGACGTGCTAG; result = -0.164 z-score
Strand = TTAGGCTTCCTTCTCCTTTAGTGCTAG; result = 1.75 z-score
Strand = GACGATATCGGTTTTCGAGACGTGCTA; result = 2.52 z-score
Strand = TTAGAACAGAGTATCGATTAGTGCTAG; result = 0.243 z-score
Strand = TCATATTTGTTTCCATTACTGTGCTAG; result = 4.53 z-score
Strand = GACGGTTTCGGTCTCGGGACGTGCTAG; result = 8.3 z-score
Strand = CTGCATTACAGCTATTTTTAGGTGCTA; result = 0.102 z-score

Sample 2
Organism: Saccharomyces cerevisiae
Read-out: peptide binding
Method: yeast competitive growth sequencing
Form: peptide
Strain: cyclin F-Cln2 fusion
Tested at: concentration not given
Setting: combined libraries, Cln2-subtracted
Direction: direction not given
Endpoint: binding score
Sequence = GSPLKKLFTSTAL; result = 0.686
Sequence = GSPLKKLFTSTGA; result = 1.54
Sequence = GSPLKALFTSTGL; result = 0.28

Sample 3
Target: RING finger protein unkempt homolog, zinc fingers 1-6, GST-SBP tag (UNK, Homo sapiens, UniProt Q9C0B0, residues 30-357)
Method: RNA Bind-n-Seq
Form: RNA
Matrix: in vitro
Tested at: not given
Setting: RNA with constant flanks, human and mouse sites, ends assumed
Reference: input RNA pool
Direction: higher = stronger binding
Endpoint: bound/input enrichment
All sequences stand within: GGGAGUUCUACAGUCCGACGAUC … CAACAGAGGAUUGAGCAUCA
Residues (chain): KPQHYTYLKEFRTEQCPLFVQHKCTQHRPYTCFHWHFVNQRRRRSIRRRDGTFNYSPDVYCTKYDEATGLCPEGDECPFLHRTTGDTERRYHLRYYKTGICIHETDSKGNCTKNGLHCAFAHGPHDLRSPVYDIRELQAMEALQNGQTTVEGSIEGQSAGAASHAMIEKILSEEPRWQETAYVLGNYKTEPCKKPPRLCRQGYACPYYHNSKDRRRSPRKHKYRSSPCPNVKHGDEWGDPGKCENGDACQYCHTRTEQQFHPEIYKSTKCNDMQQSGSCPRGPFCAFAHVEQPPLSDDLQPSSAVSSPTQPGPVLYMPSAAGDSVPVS
Strand = CACUUUGGAGCCACCGACCUGGAUGUGGCCAACUUCUACGUGUCACAGCUGCAGACUCCCAUAGGUGUGCAAGCAGAGGCGCUGCUCCGAUGUAGUGACAUUAUUUCAUAUACCUUCAAG; result = 0.409 ratio
Strand = UUGGAUUCAUUAGCAGAAAGUCCUGAAUCAGAUUUUAUGUCUGCUGUGAAUGAGUUUGUAAUAGAAGAAAAUUUGUCGUCUCCUAAUCCUAUAAGUGAUCCACAAAGCCCAGAAAUGAUG; result = 0.491 ratio
Strand = ACUUCCCCUUCAGUUGUAUCUUCUUACAGUGAUUGGUACAGUUAUUAGAUAUAAAGGUAACUGAUGUUAUUCGUCUUGUAUGGCUUUUAGUAUGUUUAUCAAGUGGCUAACAAAUGCAUU; result = 1.95 ratio
Strand = GACGAUGAAACAGUUGAUAGCUUAGGCCCCCUGGAAAAAGGACAAGUGAAAAAUGAGGCGCUUAGAGAAUUGAGAGUGGAGCUCAGCAAAAAACACCAAGCUCGAGAACUUGAUGGAUUU; result = 0.623 ratio
Strand = UAACUACUCGAAGACGAAUUCUACAGUCACCAGAAGCAAUGGAGCAGUAUUGAUAAAAGUACCCUAUCAGUUAGGACUCAGCUUAACCAUCGUUGCUUACAAAGAUGGCUACGUCUUGAC; result = 0.108 ratio
Strand = AAUACUACUUCAUGCCAUCCCAGGUUGGAAUCGCAACUCCCAACUCUCCCUAACUAAACCAUAUACAGUGAAAGUGAAAAAAGGCUCUCAAGAAGGAAGGGAGGCCACUGCUGAAAAGUA; result = 0.288 ratio
Strand = AUGUCAGUGAGGCGAGAACUCUGUGCUGUGAUGGUGUUCGCAGUGGUGGAAAGAGCAGGGACCAUAGUGUUAAAUGAUGGUGAAGAGCUGGACUCCUGGUCAGUGAUUCUCAAUGGAUCU; result = 0.21 ratio
Strand = GCAGUGGAAUUUUUCAUCAGAGAUAAAUAUGAAAAGAAGAAAUACUACGAUAAAAAUGCCAUAGCUAUUACAAAUAAAGAAAAGGAAAAAAAAAAGGAAGAGAAAAAGAGAGAAAAGGAG; result = 2.8 ratio
Strand = AGAAGAAAGCGAGCCCGGCAGAUCAAUGUUUCCACAGAUGACUCAGAGGUCAAGGCUUGCCUUCGAGCCUUGGGAGAGCCUAUCACGCUUUUUGGAGAGGGCCCUGCUGAACGAAGAGAA; result = 0.163 ratio
Strand = UGCCGGCUCUGUUUUUCUGUAAAUAAAUUUGCAUAUUUUGUAGGACUUUUAAUUGUAAUGAUAGAGAAAAAAACAAGGAAAACUAUUUAAUGAAAGCACGAUAUUUAUCUUUGGUAAAUG; result = 2.05 ratio
Strand = AAGUCUGUACCGCACGGGAAAUGUUCACGCGCCUGGCCGUGUGCAUGGCCUCCCGGGCUGUGGGCAGCCGCAUCUGUGAGGUGACUCGUGAAAGUAGGUGAUUCCUUUGCAGAACUUCAG; result = 0.0763 ratio

Sample 4
Target: Histone acetyltransferase KAT6A, winged helix 2, GST fusion (KAT6A, Homo sapiens, UniProt Q92794, residues 85-181)
Method: protein binding microarray
Form: double-stranded DNA, one strand shown
Matrix: in vitro
Tested at: not given
Setting: 8-mer, flanks averaged, mean of 2 arrays, mostly near background
Reference: not given
Direction: higher = stronger binding
Endpoint: E-score
Target sequence (chain): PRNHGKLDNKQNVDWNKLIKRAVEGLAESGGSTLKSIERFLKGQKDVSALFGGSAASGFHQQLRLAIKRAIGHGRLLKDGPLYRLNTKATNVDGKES
Strand = GTCAACAA; result = -0.1
Strand = ATCCCATG; result = -0.202
Strand = GAGAATGA; result = -0.106
Strand = CAAATGTG; result = 0.0454
Strand = AATCTGTG; result = -0.113
Strand = TCAGCCAA; result = -0.096
Strand = ACAATTCC; result = -0.0204
Strand = CCGAAGCC; result = 0.0819
Strand = ATCCGTGG; result = -0.0513
Strand = AGGGCTAG; result = -0.113
Strand = CTGCTGAA; result = 0.0607
Strand = TCAAATCA; result = -0.0601
Strand = AGTCAGGA; result = -0.0376
Strand = CTGGTACA; result = -0.0959
Strand = ATACACGG; result = -0.205
Strand = TACACTCA; result = 0.0551
Strand = CTGCACAA; result = 0.0308
Strand = TGTAATAA; result = -0.0811
Strand = AACAGAAC; result = 0.0313
Strand = GTTCCCTA; result = -0.0695

Excerpt of the above (sample 2):
Sequence = GSPLKKLFTSTGA; result = 1.54
Sequence = GSPLKKLFTSTAL; result = 0.686
Sequence = GSPLKALFTSTGL; result = 0.28
